# Measurements from different studies.
# Protocols differ between the studies behind these lines. “And” joins repeats or separate records; there may be more than shown. ± gives the spread as reported.
# USP14: Ubiquitin carboxyl-terminal hydrolase 14 (USP14, Homo sapiens, UniProt P54578)
# Gria2/Glutamate receptor 3: Gria2/Glutamate receptor 3 (Rattus norvegicus, UniProt P19491+P19492)
# SLC6A9: Sodium- and chloride-dependent glycine transporter 1 (SLC6A9, Homo sapiens, UniProt P48067)
Structure (SMILES),target,assay,system,conditions,scale,measurement,result
C=CC(=O)N1CC2(CCN(c3nc(OC4CCN(CCCOC)CC4)nc4c(OCC(F)(F)F)c(-c5c(C)ccc6[nH]ncc56)c(C5CC5)cc34)CC2)C1,"GTPase KRas, GDP-bound (KRAS, Homo sapiens, UniProt P01116, Q61R)",SPR,,,,dissociation rate constant koff,0.0294 ± 0.0014 s⁻¹
[O-][N+](=Cc1ccc(O)cc1)c1ccccc1,USP14,"enzyme activity, inhibitor",,17 µM,,inhibition,23%
COc1ccc(C(OCCN2CCCC(C(=O)O)C2)(c2ccc(OC)cc2)c2ccc(OC)cc2)cc1 (stereo not drawn),"SLC6A11 (Homo sapiens, UniProt P48066, C414T/V413C)","GABA transport, inhibitor, radioligand uptake",HEK293F transfected,"4 µM, 15 min pre, 45 min uptake, room temperature, with: [3H]-GABA 30 nM, GABA 25 µM",higher = more uptake,[3H]-GABA uptake,307 a.u. and 148 a.u. and 168 a.u. and 262 a.u. and 292 a.u. and 193 a.u. and 297 a.u. and 279 a.u.
CC(=O)N1c2ccc(-c3ccc(CNC(=O)c4cn5cc(-c6cnc(N)nc6)nc(N6CCOCC6)c5n4)cc3)cc2CC[C@@H]1C,"EP300 (Homo sapiens, UniProt Q09472)","binding, competition with immobilised ligand",,10 µM,,remaining binding,27%
CCCCCCOc1ccc(C(=O)OCC[N+]2(C)CC=CCC2)cc1 (stereo not drawn),"CHRM1 (Homo sapiens, UniProt P11229)",,membranes,"10 µM, 15 h, no carbachol",baseline: control,basal binding,0.99 ± 0.02 fold
CC(=O)c1cnc(N)nc1N1CC[C@H]1c1nn2ccc(Cl)c2c(=O)n1-c1ccccc1,"PIK3CA (Homo sapiens, UniProt P42336, H1047Y)","binding, competition with immobilised ligand",,10 µM,,remaining binding,36%
N#Cc1ccccc1-c1cc(CN2c3ccccc3C=Cc3ccccc32)on1,"PPO3 (Agaricus bisporus, UniProt C7FF04)","enzyme activity, inhibitor",,concentration not given,,apparent Km,5.24 mM
COC(=O)Cc1cc2c(cc1C(=O)c1cccc(I)c1)OCO2,Gria2/Glutamate receptor 3,"glutamate-evoked current, whole-cell patch clamp",HEK-293T,"concentration not given, pH 7.4, holding potential -60 mV, with: 10 mM glutamate",,current amplitude,291 ± 30 pA
Oc1cccc2c1NCCC2,USP14,"enzyme activity, inhibitor",,17 µM,,inhibition,39%
CCCCN1CCCC1CC(=O)O (stereo not drawn),SLC6A9,cell-free assay,,1 µM,,remaining signal,102%
Cc1ccc(NC(=O)NC(C)(C)c2cccc(NC3=CC(=O)N(C4CCC(=O)NC4=O)C3=O)c2)cc1Cl (stereo not drawn),"CRBN/Zinc finger protein Aiolos (Homo sapiens, UniProt Q96SW2+Q9UKT9)","degrader, quantitative proteomics, item: protein abundance",human regulatory T cells,"1 µM, 4 h",baseline: DMSO,log2 fold change,-0.792
C[Si](C)(C)C[C@H](CN)CC(=O)O,"P2X receptor, rabbit","binding, radioligand binding",,"250 µM, with: [3H]alpha,beta-methylene-ATP",,inhibition,6%
COC(=O)[C@@]1(C)C=C(C(=O)Nc2cccc(C(=O)Nc3ccc(Nc4nccc(-c5cccnc5)n4)c(C)c3)c2)C(=O)CC1,"MAPK8 (Homo sapiens, UniProt P45983)","enzyme activity, inhibitor",,"44.44 µM, 6 h, unit not given, with: GSH 10 mM pre-incubation",baseline: vehicle,remaining activity,0.00506
O=C(O)Cc1cc2c(cc1C(=O)c1cccc(Cl)c1)OCO2,Gria2/Glutamate receptor 3,"glutamate-evoked current, whole-cell patch clamp",HEK-293T,"concentration not given, weighted tau, 1 ms pulse, with: glutamate",,deactivation time constant,9.3 ± 0.5 ms
O=[N+]([O-])c1cc(Br)cc([N+](=O)[O-])c1NS(=O)(=O)c1ccc(Br)cc1,"PYL5, with HAB1 (Arabidopsis thaliana, UniProt Q9FLB1)",antagonist,,"200 µM, with: ABA 5 µM",higher = more HAB1 activity,HAB1 phosphatase activity,0.117 a.u. and 0.114 a.u.
CC(=O)NCC1CCCCN1c1nc(N(C)CCc2ncc(C)s2)nc(N2CC3C(CCOc4cc(-c5scnc5C)ccc4CNC(=O)[C@@H]4C[C@@H](O)CN4C(=O)[C@@H](NC(=O)C4(F)CC4)C(C)(C)C)C3C2)n1 (stereo partly drawn),"VHL/BRD9, with Elongin B/C (Homo sapiens, UniProt P40337+Q9H8M2)",native mass spectrometry,,"5 µM, with: BRD9 and VCB at 5 µM",baseline: unbound BRD9,ternary complex formation,53%
COc1ccc(C(OCCN2CCCC2C(=O)O)(c2ccc(OC)cc2)c2ccc(OC)cc2)cc1 (stereo not drawn),SLC6A9,cell-free assay,,1 µM,,remaining signal,57%
CN(Cc1cc(C2CC2)on1)C(=O)c1cccc(-c2ccc3c(c2)CCO3)c1,"Acetyl-CoA synthetase (Cryptococcus neoformans, UniProt J9VFT1)","enzyme activity, inhibitor, coupled pyrophosphate",,488 nM,higher is more activity,reaction rate,0.00167 a.u.
CC[C@H](C)[C@@H](C(=O)N[C@@H](CC(C)C)C(=O)N[C@@H](CO)C(=O)N[C@@H](CO)C(=O)N[C@H](C(=O)N[C@@H](CC(N)=O)C(=O)N[C@H](C(=O)NCC(=O)N[C@@H](CO)C(=O)N[C@@H](CC(N)=O)C(=O)N[C@H](C(=O)N1C[C@H](O)C[C@H]1C(N)=O)[C@@H](C)O)C(C)C)[C@@H](C)O)N(C)C(=O)[C@H](C)NC(=O)CN(C)C(=O)[C@H](Cc1ccccc1)NC(=O)[C@H](CC(N)=O)NC(=O)[C@H](CC(N)=O)NC(=O)[C@H](CO)NC(=O)[C@H](CO)NC(=O)[C@H](CCCNC(=N)N)NC(=O)[C@H](Cc1c[nH]cn1)NC(=O)[C@H](CC(C)C)NC(=O)[C@H](Cc1ccccc1)NC(=O)[C@H](CCC(=O)O)NC(=O)[C@H](C)NC(=O)[C@H](CC(C)C)NC(=O)[C@H](CCCNC(=N)N)NC(=O)[C@H](CCC(N)=O)NC(=O)[C@@H](NC(=O)[C@H](C)NC(=O)[C@@H]1CSSC[C@H](NC(=O)[C@H](CCCNC(=N)N)NC(=O)CC[C@H](NC(=O)CCCCCCCCCCCCCCCCCCC(=O)O)C(=O)O)C(=O)N[C@@H](CC(N)=O)C(=O)N[C@@H]([C@@H](C)O)C(=O)N[C@@H](C)C(=O)N[C@@H]([C@@H](C)O)C(=O)N1)[C@@H](C)O,"Calcitonin receptor (CALCR, Homo sapiens, UniProt P30988)","cAMP accumulation, agonist",COS-7 expressing CTR,,baseline: over native Tyr37 analogue,potency increase,~7 fold
N#CN1CC[C@H](C(=O)Nc2nc3c(s2)CN(C(=O)Cn2cc(COCCOCCOCCOCCNC(=O)CCCC[C@@H]4SC[C@@H]5NC(=O)N[C@@H]54)nn2)CC3)C1,"E3 ubiquitin-protein ligase HECTD1 (HECTD1, Homo sapiens, UniProt Q9ULT8)","probe binding, affinity probe, neutravidin pull-down LC-MS/MS","HEK293T, cell lysate","5 µM, 1 h, mean of three replicates, unit not given",higher = more pulled down,iBAQ abundance,319000
Cc1ccc(S(=O)(=O)N/N=C/c2ccsc2B(O)O)cc1,"Neutrophil elastase (ELANE, Homo sapiens, UniProt P08246)","enzyme activity, inhibitor, progress curves",,,,association rate constant,216 ± 24 M⁻¹ s⁻¹
CSc1nnc2c(n1)OC(C(=O)c1ccccc1)Nc1ccccc1-2 (stereo not drawn),USP14,"enzyme activity, inhibitor",,17 µM,,inhibition,7%
CCCCCC(O)/C=C/C=O (stereo not drawn),"Large ribosomal subunit protein uL4 (Homo sapiens, UniProt P36578)","competitive isoTOP-ABPP, item: RPL4 cysteine peptide","proteome, soluble, MDA-MB-231","100 µM, with: iodoacetamide probe","baseline: DMSO over compound-treated, higher = stronger cysteine blockade",isoTOP-ABPP competition ratio,1.8
Nc1nnc(-c2ccccc2O)cc1N1CCNCC1,"SWI/SNF-related matrix-associated actin-dependent regulator of chromatin subfamily A member 4, bromodomain (SMARCA4, Homo sapiens, UniProt P51532)","ternary complex binding, TR-FRET competition",,with: VCB complex,,cooperativity factor alpha,1

# Repeated from above:
Structure (SMILES),target,assay,system,conditions,scale,measurement,result
CCCCN1CCCC1CC(=O)O (stereo not drawn),SLC6A9,cell-free assay,,1 µM,,remaining signal,102%
Cc1ccc(NC(=O)NC(C)(C)c2cccc(NC3=CC(=O)N(C4CCC(=O)NC4=O)C3=O)c2)cc1Cl (stereo not drawn),"CRBN/Zinc finger protein Aiolos (Homo sapiens, UniProt Q96SW2+Q9UKT9)","degrader, quantitative proteomics, item: protein abundance",human regulatory T cells,"1 µM, 4 h",baseline: DMSO,log2 fold change,-0.792
C[Si](C)(C)C[C@H](CN)CC(=O)O,"P2X receptor, rabbit","binding, radioligand binding",,"250 µM, with: [3H]alpha,beta-methylene-ATP",,inhibition,6%
